Published values collected from several papers.
Several values in a cell are separate wells, animals, samples, runs or records. ± marks the error that the study gave.
UniProt Q15831, sequence (whole entry, looked up): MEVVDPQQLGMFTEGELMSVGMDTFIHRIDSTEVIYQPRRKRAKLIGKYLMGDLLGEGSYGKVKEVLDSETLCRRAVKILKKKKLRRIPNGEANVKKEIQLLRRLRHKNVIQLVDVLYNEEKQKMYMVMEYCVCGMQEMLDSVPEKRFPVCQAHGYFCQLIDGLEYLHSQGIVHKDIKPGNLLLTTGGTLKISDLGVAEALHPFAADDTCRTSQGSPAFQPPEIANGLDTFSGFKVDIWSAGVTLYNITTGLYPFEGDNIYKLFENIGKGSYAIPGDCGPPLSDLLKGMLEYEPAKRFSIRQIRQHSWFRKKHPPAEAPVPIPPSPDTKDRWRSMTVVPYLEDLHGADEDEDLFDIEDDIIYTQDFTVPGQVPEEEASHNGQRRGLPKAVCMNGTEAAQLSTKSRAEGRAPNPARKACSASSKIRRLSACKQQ

SMILES | target or system | assay | test system | setting | how to read | quantity | result
CNC(=O)C[C@H](Cc1ccc(F)cc1)NC(=O)[C@@H](Cc1ccc(Cl)cc1Cl)NC(=O)[C@H](N)Cc1ccccc1C#N | – | metabolic stability | CD-1 mouse, liver microsomes | 1 µM | – | microsomal CLint | 794 µL/min/mg
C/C(=N\OCCCN1CCCCC1)c1ccc(C(F)(F)F)cc1 | – | – | mouse, plasma | oral, 100 mg/kg once daily, day 7 | – | AUC(0-t) | 12100 ± 597 ng·h/mL
CC[C@H](C)[C@H](NC(=O)[C@H](CCCCN)NC(=O)CNC(=O)[C@H](CC(C)C)NC(=O)[C@H](Cc1ccccc1)NC(=O)[C@H](CCCCN)NC(=O)[C@H](CO)NC(=O)[C@H](Cc1ccccc1)NC(=O)[C@H](Cc1c[nH]c2ccccc12)NC(=O)[C@H](CCC(N)=O)NC(=O)[C@@H](NC(=O)[C@H](Cc1ccccc1)NC(=O)CCCCCNC(=O)CN1CCN(CC(=O)O)CCN(CC(=O)O)CCN(CC(=O)O)CC1)C(C)C)C(=O)N[C@@H](CCC(=O)O)C(=O)N1CCC[C@H]1C(=O)N[C@@H](CC(=O)O)C(=O)N[C@H](C(=O)N[C@@H](CO)C(=O)N[C@@H](CCC(N)=O)C(=O)N[C@H](C(=O)N[C@@H](CCC(N)=O)C(=O)N[C@@H](CC(=O)O)C(=O)N1CCC[C@H]1C(=O)N[C@@H](CC(N)=O)C(=O)N[C@@H](CC(=O)O)C(=O)N[C@@H](CCC(N)=O)C(=O)N[C@@H](Cc1ccc(O)cc1)C(=O)N[C@@H](CCC(=O)O)C(=O)N1CCC[C@H]1C(=O)N[C@@H](Cc1ccccc1)C(=O)O)C(C)C)C(C)C [copper-64 labelled] | – | – | GZMB-/- mice, CT26 tumour-bearing, pancreas | 2 h, vehicle-treated | – | tissue uptake | 0.73 ± 0.5 %ID/g
CC[C@H](C)[C@H](NC(=O)[C@H](CO)NC(=O)[C@H](Cc1ccc(O)cc1)NC(=O)[C@H](Cc1ccc(O)cc1)NC(=O)[C@H](CC(N)=O)NC(=O)CNC(=O)[C@H](CO)NC(=O)[C@H](Cc1ccc(O)cc1)NC(=O)[C@H](CO)NC(=O)[C@H](CO)NC(=O)[C@H](CC(N)=O)NC(=O)COCCOCCNC(=O)CN1CCN(CC(=O)O)CCN(CC(=O)O)CCN(CC(=O)O)CC1)C(=O)N[C@@H](CC(C)C)C(N)=O [copper-64 labelled] | – | dynamic PET | KPC mouse Ptf1a-CreER tdTomato, pancreas | intravenous, 4.6 MBq/mouse, 12.5 min, 84 d after tamoxifen | – | tissue uptake | 12.9 %ID/mL
COc1ccccc1-c1n[nH]c2nc(N[C@H]3CC[C@H](NS(=O)(=O)CC(C)C)CC3)ncc12 | – | bead binding, competition bead pull-down, measured: LINJ.28.2870 | Leishmania donovani extract | 10 µM | baseline: vehicle | relative abundance | 1.22
CN(C)[C@H]1C[C@@]23CC[C@@]4(O2)C(=CC[C@]2(C)[C@@H](c5ccc6ccncc6c5)CC[C@H]24)C=C3[C@@H](O)[C@@H]1O | STK11 (Homo sapiens, UniProt Q15831) | ATP probe labelling, inhibitor, KiNativ profiling | – | 1 µM | – | inhibition | 7.1%
CC(=O)NCCCC[C@@H]1NC(=O)[C@H](Cc2c[nH]c3c(C)cccc23)NC(=O)[C@H]([C@@H](C)O)NC(=O)[C@H](CC(N)=O)NC(=O)[C@@H](NC(C)=O)C(C)(C)SSC(C)(C)[C@@H](C(=O)N[C@@H](Cc2ccc(OCCN)cc2)C(=O)N[C@@H](Cc2ccc3ccccc3c2)C(=O)NC2(C(=O)N[C@@H](CCC(=O)O)C(=O)N[C@@H](CC(N)=O)C(=O)N[C@@H](Cc3cccnc3)C(=O)N(C)CC(N)=O)CCOCC2)NC1=O | – | equilibrium dialysis | human, plasma | 1 µM | – | unbound fraction | 50.3 ± 5.4%
C[C@H](O)[C@@H](NC(=O)[C@H]1CCCN1C(=O)[C@@H](CCCCN)NC(=O)[C@@H](CO)NC(=O)[C@@H](Cc1ccc(O)cc1)NC(=O)[C@@H](CC(N)=O)NC(=O)CCOCCOCCOCCNC(=O)CN1CCN(CC(=O)O)CCN(CC(=O)O)CCN(CC(=O)O)CC1)C(=O)N[C@H](CC(=O)O)C(=O)N[C@H](CCCNC(=N)N)C(=O)N[C@H](CCC(N)=O)C(=O)N[C@H](Cc1ccc(O)cc1)C(=O)N[C@H](Cc1c[nH]cn1)C(=O)N[C@H](Cc1ccccc1)C(N)=O [copper-64 labelled] | – | – | C57BL/6J mice, stomach | intravenous, 1.85 MBq, 0.3333 h, radiolabelled | – | tissue uptake | 1.15 ± 0.71 %ID/g
CC(C)(C)C(=O)OCOP(=O)(OCOC(=O)C(C)(C)C)C1CCCN(O)C1=O (stereo not drawn) | SNB-75 | – | – | – | – | log LC50 | > -4 log M
CCN(C(=O)[C@H](C)N(Cc1ccccc1)C(C)=O)[C@@H](C)C(=O)N(Cc1c[nH]c2cc(Cl)ccc12)[C@@H](C)C(=O)N(CC)[C@@H](C)C(=O)N(CCC(C)(C)C)[C@@H](C)C(N)=O | – | – | PAMPA | 10 µM, 4 h, pH 7.4 | – | Papp | 0.34 ×10⁻⁶ cm/s
NC1CCN(C(=O)Oc2ccc(C3CCCC4(C3)OOC3(O4)C4CC5CC(C4)CC3C5)cc2)CC1 (racemic) | – | – | male Sprague-Dawley rat, plasma | intravenous, 10 mg/kg | – | Cmax | 1660 ng/mL
CCCCCCCCCCCCCCCC(=O)N[C@@H](CCC(=O)NCCOCCOCCC(=O)NCCOCCOCCC(=O)NCCCC[C@H](NC(=O)[C@H](CC(=O)O)NC(=O)[C@H](CC(C)C)NC(=O)[C@H](Cc1ccc(O)cc1)NC(=O)[C@H](CCCCN)NC(=O)[C@H](CO)NC(=O)[C@H](Cc1ccc(O)cc1)NC(=O)[C@H](CC(=O)O)NC(=O)[C@H](CO)NC(=O)[C@@H](NC(=O)[C@H](Cc1ccccc1)NC(=O)[C@@H](NC(=O)CNC(=O)[C@H](CCC(N)=O)NC(=O)[C@@H](CO)NC(=O)[C@@H](N)Cc1c[nH]cn1)[C@@H](C)O)[C@@H](C)O)C(=O)N[C@@H](CCCNC(=N)N)C(=O)N[C@@H](CCCNC(=N)N)C(=O)N[C@@H](C)C(=O)N[C@@H](CCC(N)=O)C(=O)N[C@@H](CC(=O)O)C(=O)N[C@@H](Cc1ccccc1)C(=O)N[C@H](C(=O)N[C@@H](CCC(N)=O)C(=O)N[C@@H](Cc1c[nH]c2ccccc12)C(=O)N[C@@H](CC(C)C)C(=O)N[C@@H](CC(C)C)C(=O)N[C@@H](CC(N)=O)C(=O)N[C@H](C(=O)NCC(=O)NCC(=O)N1CCC[C@H]1C(=O)N[C@@H](CO)C(=O)N[C@@H](CO)C(=O)NCC(=O)N[C@@H](C)C(=O)N1CCC[C@H]1C(=O)N1CCC[C@H]1C(=O)N1CCC[C@H]1C(=O)N[C@@H](CO)C(N)=O)[C@@H](C)O)C(C)C)C(=O)O | – | measured: ALT | rhesus monkey, male | subcutaneous, 300 µg/kg once daily, 28 days | – | serum enzyme activity | 34.3 ± 6.6 U/L
Cc1ccc(NS(=O)(=O)c2c(C(=O)N3CCCCCC3)c(C)n(C)c2C)c(Cl)c1 | CV-1 | – | African green monkey cells | 1.235 µM, 60 (unit not given) | – | viability | 97.4% and 99.1%
CC[C@H](C)[C@H](NC(=O)[C@H](CCCNC(=N)N)NC(=O)[C@H](CCCCN)NC(=O)[C@H](Cc1ccc(O)cc1)NC(=O)[C@H](CC(=O)O)NC(=O)[C@H](C)NC(=O)CNC(=O)CCOCCOCCOCCNC(=O)CN1CCN(CC(=O)O)CCN(CC(=O)O)CCN(CC(=O)O)CC1)C(=O)N[C@H](C(=O)N[C@@H](CC(C)C)C(=O)N[C@@H](CCCCN)C(=O)N[C@H](C(=O)N[C@@H](CC(N)=O)C(N)=O)C(C)C)[C@@H](C)O [copper-64 labelled] | – | ex vivo gamma counting | C57BL/6J male mice, B16-F10 tumour, kidney | intravenous, 1.85 MBq, 20 min | – | tissue uptake | 14 ± 6.44 %ID/g
Cc1cc(Oc2nc(N3CC[C@@H](c4ccncc4)C3)ncc2F)[nH]n1 | NCI-H460 | cell proliferation | lung cancer | – | – | IC50 | 37.2 µM
O=C1NC2(CC2)COc2ncc(F)cc2[C@H]2COCCN2c2ccn3ncc1c3n2 | – | – | Sprague-Dawley rat, female, serum | oral, 2.5 mg/kg/day, 4 weeks daily, end of recovery period | – | alkaline phosphatase activity | 35.3 ± 9.8 U/L
COc1ccccc1-c1n[nH]c2nc(NC3CCN(C(=O)Cc4ccc(F)cc4F)CC3)ncc12 | – | bead binding, competition bead pull-down, measured: LINJ.26.0290 | Leishmania donovani extract | 10 µM | baseline: vehicle | relative abundance | 1.23
CSCC[C@H](N)C(=O)N[C@@H](C)C(=O)N[C@@H](CCCNC(=N)N)C(=O)N[C@@H](CCCNC(=N)N)C(=O)N[C@@H](CC(=O)O)C(=O)N[C@@H](CCCCN)C(=O)N[C@H](C(=O)N[C@@H](CC(=O)O)C(=O)N[C@@H](Cc1ccccc1)C(=O)N[C@@H](C)C(=O)N[C@@H](CCCNC(=N)N)C(=O)N[C@@H](CCCNC(=N)N)C(=O)N[C@@H](CCCNC(=N)N)C(=O)N[C@@H](CCCNC(=N)N)C(=O)NCCCCCC(=O)NCCCCC(NC(=O)CCCCCNC(=O)[C@H](CCCNC(=N)N)NC(=O)[C@H](CCCNC(=N)N)NC(=O)[C@H](CCCNC(=N)N)NC(=O)[C@H](CCCNC(=N)N)NC(=O)[C@H](C)NC(=O)[C@H](Cc1ccccc1)NC(=O)[C@H](CC(=O)O)NC(=O)[C@@H](NC(=O)[C@H](CCCCN)NC(=O)[C@H](CC(=O)O)NC(=O)[C@H](CCCNC(=N)N)NC(=O)[C@H](CCCNC(=N)N)NC(=O)[C@H](C)NC(=O)[C@@H](N)CCSC)[C@@H](C)O)C(=O)NCCCCC(NC(=O)C(CCCCNC(=O)CCCCCNC(=O)[C@H](CCCNC(=N)N)NC(=O)[C@H](CCCNC(=N)N)NC(=O)[C@H](CCCNC(=N)N)NC(=O)[C@H](CCCNC(=N)N)NC(=O)[C@H](C)NC(=O)[C@H](Cc1ccccc1)NC(=O)[C@H](CC(=O)O)NC(=O)[C@@H](NC(=O)[C@H](CCCCN)NC(=O)[C@H](CC(=O)O)NC(=O)[C@H](CCCNC(=N)N)NC(=O)[C@H](CCCNC(=N)N)NC(=O)[C@H](C)NC(=O)[C@@H](N)CCSC)[C@@H](C)O)NC(=O)CCCCCNC(=O)[C@H](CCCNC(=N)N)NC(=O)[C@H](CCCNC(=N)N)NC(=O)[C@H](CCCNC(=N)N)NC(=O)[C@H](CCCNC(=N)N)NC(=O)[C@H](C)NC(=O)[C@H](Cc1ccccc1)NC(=O)[C@H](CC(=O)O)NC(=O)[C@@H](NC(=O)[C@H](CCCCN)NC(=O)[C@H](CC(=O)O)NC(=O)[C@H](CCCNC(=N)N)NC(=O)[C@H](CCCNC(=N)N)NC(=O)[C@H](C)NC(=O)[C@@H](N)CCSC)[C@@H](C)O)C(N)=O)[C@@H](C)O (stereo partly drawn) | – | – | C57BL/6 mouse female, colon | dose not given, 6 h | baseline: total | mean tissue distribution | 3.08%
C#Cc1c(F)ccc2cc(O)cc(-c3ncc4c(N5CC6CCC(C5)N6C(=O)OC(CCC)OC(=O)CCC)nc(OC[C@@]56CCCN5C[C@H](F)C6)nc4c3F)c12 (stereo partly drawn) | – | measured: prodrug | mouse whole blood | 1 µM | – | t1/2 | 4.85 min
CN1Cc2cc(Cl)ccc2-n2c(nnc2C2CCN(c3cccc([18F])n3)CC2)C1 | – | – | C57BL/6 mouse male, spleen | intravenous, 3.7 MBq, 1 min | – | tissue uptake | 2.96 ± 1.56 %ID/g
CC(CCC(=O)NCC(=O)O)C1CCC2C3CCC4CC(OC5OC(C(=O)O)C(O)C(O)C5O)CCC4(C)C3CC(O)C12C (stereo not drawn) | – | – | men, T/T genotype, plasma | dose not given, geometric mean | – | plasma concentration | 81.3 ng/mL
